Results of several laboratories.
Several values in a cell are separate wells, animals, samples, runs or records.

| Structure (SMILES) | assay | system | setting | scale | endpoint | result |
| --- | --- | --- | --- | --- | --- | --- |
| C#Cc1c(F)ccc2cc(O)cc(-c3ncc4c(N5CC6CCC(C5)N6C(=O)OC(C)OC(=O)C(CC)CCCC)nc(OC[C@@]56CCCN5C[C@H](F)C6)nc4c3F)c12 (some centres unmarked) | – | simulated gastric fluid | 1 µM, 30 min, 37 °C | – | remaining prodrug | 93.4% |
| C[C@H](NC(=O)CNC(=O)[C@@H]1CCCN1C(=O)[C@H](CO)NC(=O)CNC(=O)[C@H](CO)NC(=O)[C@H](C)NC(=O)[C@H](CC(N)=O)NC(=O)[C@H](C)NC(=O)[C@H](CO)NC(=O)[C@H](C)NC(=O)[C@H](CO)NC(=O)[C@@H]1CCCN1C(=O)[C@H](Cc1ccccc1)NC(=O)[C@H](C)NC(=O)[C@H](CO)NC(=O)[C@@H]1CCCN1C(=O)[C@H](Cc1ccccc1)NC(=O)[C@@H](NC(=O)[C@H](CC(=O)O)NC(=O)[C@@H](N)CO)[C@@H](C)O)C(=O)N[C@@H](CCCNC(=N)N)C(=O)N[C@@H](CO)C(=O)O | – | CHO-K1 culture medium | 80 min | – | remaining peptide | 1.03% |
| CC[C@H](C)[C@H](NC(=O)[C@@H](NC(=O)[C@@H](NC(=O)[C@@H](NC(=O)[C@@H](N)CCCCN)C(C)C)C(C)C)C(C)C)C(=O)N[C@H](C(N)=O)[C@@H](C)O | LC-MS | pronase digest | 200 µM, 1 h, pH 7.5, 37 °C, with: pronase 2.5 µg/mL | – | remaining intact peptide | 83% |
| CSCC[C@H](NC(=O)[C@H](CCCNC(=N)N)NC(=O)[C@H](CCCNC(=N)N)NC(=O)[C@H](CCCCN)NC(=O)[C@H](C)NC(=O)[C@H](CCCNC(=N)N)NC(=O)CNC(=O)[C@@H](N)[C@@H](C)O)C(=O)N[C@@H](CCC(N)=O)C(=O)N[C@@H](Cc1ccc(O)cc1)C(=O)N[C@@H](CC(N)=O)C(=O)N[C@@H](CCCNC(=N)N)C(=O)N[C@@H](CCCNC(=N)N)C(N)=O | HPLC peak area | 50% human serum | 100 µM, 2 h, pH 7.4, 37 °C | reference: 0 h | remaining peptide | 24% and 20.5% and 22.8% |
| C=CCN1CCC23c4c5ccc(OC(=O)c6ccc(N)cc6)c4OC2C(=O)CCC3(O)C1C5 (centres unmarked) | – | human plasma | 24 h | – | remaining compound | 62.3% and 62.5% and 62.7% |
| Cc1nnc(-c2ccc(CC(=O)NCCCC[C@H](NC(=O)c3ccc(OCc4ccc(B(O)O)cc4)c(-c4nc5ccccc5c(=O)[nH]4)c3)C(=O)NCC(=O)NCC(=O)NCC(=O)N[C@@H](Cc3ccccc3)C(=O)N[C@@H](Cc3ccccc3)C(=O)O)cc2)nn1 | UPLC-MS/MS | human serum | 100 µM, 3 h, 37 °C | – | remaining compound | 73.5% |
| C#Cc1c(F)ccc2cc(O)cc(-c3ncc4c(N5CC6CCC(C5)N6C(=O)OC(C)OC(=O)C(CCCC)CCCC)nc(OC[C@@]56CCCN5C[C@H](F)C6)nc4c3F)c12 (some centres unmarked) | – | simulated gastric fluid | 1 µM, 30 min, 37 °C | – | remaining prodrug | 105% |
| CSCC[C@@H]1NC(=O)[C@H](C(C)C)NC(=O)[C@H](CCCNC(=N)N)NC(=O)[C@@H]2CCCN2C(=O)CNC(=O)[C@@H](NC(=O)CNC(=O)[C@H](CO)NC(=O)CNC(=O)[C@H](CO)NC(=S)Nc2ccc(C[C@H]3CN(CC(=O)O)CCN(CC(=O)O)CCN3CC(=O)O)cc2)CSSC[C@@H](C(N)=O)NC(=O)[C@@H]2CCCN2C(=O)CNC(=O)[C@H](CCC(=O)O)NC(=O)[C@H](CC(=O)O)NC(=O)[C@H](CC(=O)O)NC(=O)CNC(=O)[C@H](CC(C)C)NC(=O)[C@H](Cc2c[nH]cn2)NC(=O)[C@H](CC(C)C)NC(=O)CNC(=O)[C@H](Cc2c[nH]cn2)NC1=O [copper-64 labelled] | SE-HPLC | rat serum | 1.2 µM, 1 h, 37 °C | – | remaining intact | > 90% |

Some of these lines once more:
| Structure (SMILES) | assay | system | setting | scale | endpoint | result |
| --- | --- | --- | --- | --- | --- | --- |
| C#Cc1c(F)ccc2cc(O)cc(-c3ncc4c(N5CC6CCC(C5)N6C(=O)OC(C)OC(=O)C(CCCC)CCCC)nc(OC[C@@]56CCCN5C[C@H](F)C6)nc4c3F)c12 (some centres unmarked) | – | simulated gastric fluid | 1 µM, 30 min, 37 °C | – | remaining prodrug | 105% |
